Measured values from different studies.
No end group written: not given here.
B1: DIS3 D551N (Saccharomyces cerevisiae, UniProt Q08162); sequence looked up; chain MSVPAIAPRRKRLADGLSVTQKVFVRSRNGGATKIVREHYLRSDIPCLSRSCTKCPQIVVPDAQNELPKFILSDSPLELSAPIGKHYVVLDTNVVLQAIDLLENPNCFFDVIVPQIVLDEVRNKSYPVYTRLRTLCRDSDDHKRFIVFHNEFSEHTFVERLPNETINDRNDRAIRKTCQWYSEHLKPYDINVVLVTNDRLNREAATKEVESNIITKSLVQYIELLPNADDIRDSIPQMDSFDKDLERDTFSDFTFPEYYSTARVMGGLKNGVLYQGNIQISEYNFLEGSVSLPRFSKPVLIVGQKNLNRAFNGDQVIVELLPQSEWKAPSSIVLDSEHFDVNDNPDIEAGDDDDNNESSSNTTVISDKQRRLLAKDAMIAQRSKKIQPTAKVVYIQRRSWRQYVGQLAPSSVDPQSSSTQNVFVILMDKCLPKVRIRTRRAAELLDKRIVISIDSWPTTHKYPLGHFVRDLGTIESAQAETEALLLEHDVEYRPFSKKVLECLPAEGHDWKAPTKLDDPEAVSKDPLLTKRKDLRDKLICSIDPPGCVDINDALHAKKLPNGNWEVGVHIADVTHFVKPGTALDAEGAARGTSVYLVDKRIDMLPMLLGTDLCSLKPYVDRFAFSVIWELDDSANIVNVNFMKSVIRSREAFSYEQAQLRIDDKTQNDELTMGMRALLKLSVKLKQKRLEAGALNLASPEVKVHMDSETSDPNEVEIKKLLATNSLVEEFMLLANISVARKIYDAFPQTAMLRRHAAPPSTNFEILNEMLNTRKNMSISLESSKALADSLDRCVDPEDPYFNTLVRIMSTRCMMAAQYFYSGAYSYPDFRHYGLAVDIYTHFTSPIRRYCDVVAHRQLAGAIGYEPLSLTHRDKNKMDMICRNINRKHRNAQFAGRASIEYYVGQVMRNNESTETGYVIKVFNNGIVVLVPKFGVEGLIRLDNLTEDPNSAAFDEVEYKLTFVPTNSDKPRDVYVFDKVEVQVRSVMDPITSKRKAELLLK
B2: LILRB4/rat CD4 d3+4 extracellular domain 24-238 (Mus musculus); sequence looked up; chain GHLPKPIIWAEPGSVIAAYTSVITWCQGSWEAQYYHLYKEKSVNPWDTQVPLETRNKAKFNIPSMTTSYAGIYKCYYESAAGFSEHSDAMELVMTGAYENPSLSVYPSSNVTSGVSISFSCSSSIVFGRFILIQEGKHGLSWTLDSQHQANQPSYATFVLDAVTPNHNGTFRCYGYFRNEPQVWSKPSNSLDLMISETKDQSSTPTEDGLETYQK
B3: RTT103 1-131 R108N (Saccharomyces cerevisiae, UniProt Q05543); chain MPFSSEQFTTKLNTLEDSQESISSASKWLLLQYRDAPKVAEMWKEYMLRPSVNTRRKLLGLYLMNHVVQQAKGQKIIQFQDSFGKVAAEVLGRINQEFPRDLKKKLSNVVNILKERNIFSKQVVNDIERSL
B4: UGT1A9 (Homo sapiens, UniProt O60656); chain GKLLVVPMDGSHWFTMRSVVEKLILRGHEVVVVMPEVSWQLGRSLNCTVKTYSTSYTLEDLDREFKAFAHAQWKAQVRSIYSLLMGSYNDIFDLFFSNCRSLFKDKKLVEYLKESSFDAVFLDPFDNCGLIVAKYFSLPSVVFARGILCHYLEEGAQCPAPLSYVPRILLGFSDAMTFKERVRNHIMHLEEHLLCHRFFKNALEIASEILQTPVTEYDLYSHTSIWLLRTDFVLDYPKPVMPNMIFIGGINCHQGKPLPMEFEAYINASGEHGIVVFSLGSMVSEIPEKKAMAIADALGKIPQTVLWRYTGTRPSNLANNTILVKWLPQNDLLGHPMTRAFITHAGSHGVYESICNGVPMVMMPLFGDQMDNAKRMETKGAGVTLNVLEMTSEDLENALKAVINDKSYKENIMRLSSLHKDRPVEPLDLAVFWVEFVMRHKGAPHLRPAAHDLTWYQYHSLDVIGFLLAVVLTVAFITFKCCAYGYRKCLGKKGRVKKAHKSKTH
B5: erenumab; V domains shown; sequence looked up; VH QVQLVESGGGVVQPGRSLRLSCAASGFTFSSFGMHWVRQAPGKGLEWVAVISFDGSIKYSVDSVKGRFTISRDNSKNTLFLQMNSLRAEDTAVYYCARDRLNYYDSSGYYHYKYYGMAVWGQGTTVTVSS; VL QSVLTQPPSVSAAPGQKVTISCSGSSSNIGNNYVSWYQQLPGTAPKLLIYDNNKRPSGIPDRFSGSKSGTSTTLGITGLQTGDEADYYCGTWDSRLSAVVFGGGTKLTVL
B6: TIMP3 24-144 (Homo sapiens, UniProt P35625); sequence looked up; chain CTCSPSHPQDAFCNSDIVIRAKVVGKKLVKEGPFGTLVYTIKQMKMYRGFTKMPHVQYIHTEASESLCGLKLEVNKYQYLLTGRVYDGKMYTGLCNFVERWDQLTLSQRKGLNYRYHLGCN
B7: Cdk4 (Mus musculus, UniProt P30285); chain MAATRYEPVAEIGVGAYGTVYKARDPHSGHFVALKSVRVPNGGAAGGGLPVSTVREVALLRRLEAFEHPNVVRLMDVCATSRTDRDIKVTLVFEHIDQDLRTYLDKAPPPGLPVETIKDLMRQFLSGLDFLHANCIVHRDLKPENILVTSNGTVKLADFGLARIYSYQMALTPVVVTLWYRAPEVLLQSTYATPVDMWSVGCIFAEMFRRKPLFCGNSEADQLGKIFDLIGLPPEDDWPREVSLPRGAFAPRGPRPVQSVVPEMEESGAQLLLEMLTFNPHKRISAFRALQHSYLHKEESDAE
B8: CXCL9 (UniProt Q07325); chain TPVVRKGRCSCISTNQGTIHLQSLKDLKQFAPSPSCEKIEIIATLKNGVQTCLNPDSADVKELIKKWEKQVSQKKKQKNGKKHQKKKVLKVRKSQRSRQKKTT
B9: rof 1-84 Y13A (Escherichia coli, UniProt P0AFW8); chain MNDTYQPINCDDADNLELACQHHLMLTLELKDGEKLQAKASDLVSRKNVEYLVVEAAGETRELRLDKITSFSHPEIGTVVVSES
Chain of UniProt Q05152 (whole entry, looked up): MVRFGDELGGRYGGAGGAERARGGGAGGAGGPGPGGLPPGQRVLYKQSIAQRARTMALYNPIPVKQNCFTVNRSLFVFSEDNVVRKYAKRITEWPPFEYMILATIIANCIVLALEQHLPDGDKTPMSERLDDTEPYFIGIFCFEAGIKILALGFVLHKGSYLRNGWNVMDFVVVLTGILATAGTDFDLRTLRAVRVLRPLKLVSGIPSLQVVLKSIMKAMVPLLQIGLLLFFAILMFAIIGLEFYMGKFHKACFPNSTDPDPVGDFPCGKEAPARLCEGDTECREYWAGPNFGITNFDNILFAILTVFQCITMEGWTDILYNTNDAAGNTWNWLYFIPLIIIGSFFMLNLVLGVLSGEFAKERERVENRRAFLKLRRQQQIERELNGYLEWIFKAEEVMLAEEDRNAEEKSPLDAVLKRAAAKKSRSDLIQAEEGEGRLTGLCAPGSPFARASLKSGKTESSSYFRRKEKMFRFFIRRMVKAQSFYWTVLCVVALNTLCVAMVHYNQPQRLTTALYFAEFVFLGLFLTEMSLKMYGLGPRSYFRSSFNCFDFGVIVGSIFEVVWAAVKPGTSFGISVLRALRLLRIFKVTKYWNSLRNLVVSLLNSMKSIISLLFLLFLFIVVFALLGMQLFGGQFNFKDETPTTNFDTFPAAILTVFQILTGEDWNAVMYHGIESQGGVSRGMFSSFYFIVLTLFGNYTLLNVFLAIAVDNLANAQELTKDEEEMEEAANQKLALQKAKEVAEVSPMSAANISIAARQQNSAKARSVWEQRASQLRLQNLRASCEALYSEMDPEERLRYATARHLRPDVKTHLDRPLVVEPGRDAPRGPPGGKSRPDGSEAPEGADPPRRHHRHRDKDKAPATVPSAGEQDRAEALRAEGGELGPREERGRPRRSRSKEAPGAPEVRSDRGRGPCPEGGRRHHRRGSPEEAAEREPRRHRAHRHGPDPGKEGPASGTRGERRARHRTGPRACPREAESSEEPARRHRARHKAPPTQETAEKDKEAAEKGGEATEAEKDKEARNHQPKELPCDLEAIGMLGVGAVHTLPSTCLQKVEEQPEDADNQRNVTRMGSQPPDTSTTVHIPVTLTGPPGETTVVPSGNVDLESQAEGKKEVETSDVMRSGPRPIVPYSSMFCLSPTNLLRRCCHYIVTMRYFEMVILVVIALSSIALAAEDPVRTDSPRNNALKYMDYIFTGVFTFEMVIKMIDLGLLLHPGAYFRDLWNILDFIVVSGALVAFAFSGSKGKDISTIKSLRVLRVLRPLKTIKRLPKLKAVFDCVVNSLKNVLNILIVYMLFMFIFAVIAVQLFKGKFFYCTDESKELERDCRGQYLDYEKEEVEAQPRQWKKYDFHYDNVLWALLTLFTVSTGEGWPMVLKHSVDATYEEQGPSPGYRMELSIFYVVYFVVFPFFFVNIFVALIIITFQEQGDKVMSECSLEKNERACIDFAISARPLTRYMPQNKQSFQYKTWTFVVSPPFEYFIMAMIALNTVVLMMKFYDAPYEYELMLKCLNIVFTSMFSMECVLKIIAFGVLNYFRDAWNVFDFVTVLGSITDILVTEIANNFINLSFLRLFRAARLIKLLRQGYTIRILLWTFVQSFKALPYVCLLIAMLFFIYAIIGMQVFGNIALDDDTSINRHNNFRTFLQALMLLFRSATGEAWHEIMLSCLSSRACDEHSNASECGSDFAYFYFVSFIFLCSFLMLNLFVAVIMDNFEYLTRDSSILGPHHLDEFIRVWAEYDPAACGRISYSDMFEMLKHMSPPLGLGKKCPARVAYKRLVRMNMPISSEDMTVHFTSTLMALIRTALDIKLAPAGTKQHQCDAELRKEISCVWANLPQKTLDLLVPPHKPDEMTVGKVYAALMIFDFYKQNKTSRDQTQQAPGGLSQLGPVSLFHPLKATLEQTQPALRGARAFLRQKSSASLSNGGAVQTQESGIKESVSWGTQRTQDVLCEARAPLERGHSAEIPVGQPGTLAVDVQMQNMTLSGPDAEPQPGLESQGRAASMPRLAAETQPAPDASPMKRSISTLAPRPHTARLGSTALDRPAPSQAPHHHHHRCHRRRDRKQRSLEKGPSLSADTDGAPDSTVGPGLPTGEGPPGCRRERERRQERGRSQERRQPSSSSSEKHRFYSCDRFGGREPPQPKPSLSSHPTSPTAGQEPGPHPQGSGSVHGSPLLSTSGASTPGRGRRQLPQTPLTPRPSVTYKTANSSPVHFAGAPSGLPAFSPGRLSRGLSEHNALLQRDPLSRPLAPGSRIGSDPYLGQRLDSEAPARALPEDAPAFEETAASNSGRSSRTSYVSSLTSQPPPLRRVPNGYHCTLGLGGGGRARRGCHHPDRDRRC
Chain of UniProt P0AG30 (whole entry, looked up): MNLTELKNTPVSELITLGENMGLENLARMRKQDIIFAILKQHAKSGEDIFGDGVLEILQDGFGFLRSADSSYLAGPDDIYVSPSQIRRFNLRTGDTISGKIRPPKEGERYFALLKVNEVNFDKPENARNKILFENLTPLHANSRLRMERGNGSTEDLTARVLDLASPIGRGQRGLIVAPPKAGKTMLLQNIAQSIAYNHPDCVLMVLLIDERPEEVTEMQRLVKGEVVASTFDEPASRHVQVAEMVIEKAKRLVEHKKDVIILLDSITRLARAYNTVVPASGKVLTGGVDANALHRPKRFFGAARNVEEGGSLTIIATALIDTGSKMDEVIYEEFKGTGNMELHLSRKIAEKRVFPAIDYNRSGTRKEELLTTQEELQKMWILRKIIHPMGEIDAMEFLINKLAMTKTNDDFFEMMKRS
Chain of UniProt Q96SB4 (whole entry, looked up): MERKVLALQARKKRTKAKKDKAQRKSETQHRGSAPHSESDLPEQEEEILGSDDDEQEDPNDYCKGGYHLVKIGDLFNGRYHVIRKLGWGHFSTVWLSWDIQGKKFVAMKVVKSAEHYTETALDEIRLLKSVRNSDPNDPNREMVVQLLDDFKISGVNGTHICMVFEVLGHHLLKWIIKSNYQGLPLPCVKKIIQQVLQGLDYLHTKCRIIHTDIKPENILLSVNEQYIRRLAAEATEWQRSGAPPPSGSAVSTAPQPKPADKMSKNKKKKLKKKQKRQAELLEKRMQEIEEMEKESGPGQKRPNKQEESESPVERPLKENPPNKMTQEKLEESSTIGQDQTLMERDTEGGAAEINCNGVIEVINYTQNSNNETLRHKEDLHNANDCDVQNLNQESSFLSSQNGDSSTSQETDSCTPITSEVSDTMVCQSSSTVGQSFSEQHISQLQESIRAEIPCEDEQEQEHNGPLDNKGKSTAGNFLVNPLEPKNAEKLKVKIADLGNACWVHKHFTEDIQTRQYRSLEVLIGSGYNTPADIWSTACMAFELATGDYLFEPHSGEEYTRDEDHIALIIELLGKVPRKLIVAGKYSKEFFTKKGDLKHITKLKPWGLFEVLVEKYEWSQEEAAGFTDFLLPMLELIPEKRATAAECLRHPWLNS
Chain of UniProt P01589 (whole entry, looked up): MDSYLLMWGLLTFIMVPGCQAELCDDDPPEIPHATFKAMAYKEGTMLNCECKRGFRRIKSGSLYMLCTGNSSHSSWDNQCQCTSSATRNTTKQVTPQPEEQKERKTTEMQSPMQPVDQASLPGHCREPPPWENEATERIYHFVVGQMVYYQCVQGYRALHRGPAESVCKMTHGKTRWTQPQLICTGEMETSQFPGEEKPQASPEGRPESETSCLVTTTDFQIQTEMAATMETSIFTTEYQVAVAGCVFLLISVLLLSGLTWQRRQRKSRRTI
Chain of UniProt Q8NHJ6 (whole entry, looked up): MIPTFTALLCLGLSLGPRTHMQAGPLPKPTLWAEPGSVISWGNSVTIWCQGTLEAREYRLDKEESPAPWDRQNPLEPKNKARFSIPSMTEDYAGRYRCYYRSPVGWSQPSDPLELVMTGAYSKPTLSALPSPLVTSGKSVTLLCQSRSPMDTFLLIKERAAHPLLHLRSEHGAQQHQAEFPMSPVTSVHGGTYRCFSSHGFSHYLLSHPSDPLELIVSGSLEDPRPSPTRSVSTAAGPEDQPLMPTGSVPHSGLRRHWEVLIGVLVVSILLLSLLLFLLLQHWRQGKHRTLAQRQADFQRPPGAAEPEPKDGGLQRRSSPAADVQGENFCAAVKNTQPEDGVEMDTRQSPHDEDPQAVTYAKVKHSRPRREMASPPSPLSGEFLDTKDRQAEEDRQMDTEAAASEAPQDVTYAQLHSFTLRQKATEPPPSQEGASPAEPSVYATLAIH
Chain of UniProt Q14108 (whole entry, looked up): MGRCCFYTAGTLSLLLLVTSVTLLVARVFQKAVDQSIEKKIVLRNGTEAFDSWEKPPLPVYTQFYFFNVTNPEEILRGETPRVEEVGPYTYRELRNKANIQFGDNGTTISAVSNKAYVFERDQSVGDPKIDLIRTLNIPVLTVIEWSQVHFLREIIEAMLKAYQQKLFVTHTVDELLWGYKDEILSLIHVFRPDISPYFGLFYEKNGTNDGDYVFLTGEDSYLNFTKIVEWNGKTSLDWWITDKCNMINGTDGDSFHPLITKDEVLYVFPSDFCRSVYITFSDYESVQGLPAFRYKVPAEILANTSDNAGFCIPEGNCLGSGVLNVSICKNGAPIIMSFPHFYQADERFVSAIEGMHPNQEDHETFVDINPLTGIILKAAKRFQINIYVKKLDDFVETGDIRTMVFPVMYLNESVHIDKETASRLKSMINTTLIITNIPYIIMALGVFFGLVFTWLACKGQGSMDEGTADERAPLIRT
Chain of UniProt P00429 (whole entry, looked up): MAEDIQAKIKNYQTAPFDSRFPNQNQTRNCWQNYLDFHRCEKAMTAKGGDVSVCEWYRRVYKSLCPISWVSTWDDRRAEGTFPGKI

Molecule | tested on | test | test system | setting | how to read | endpoint | value
PTH fragment (Homo sapiens) | PTH1R (Homo sapiens, UniProt Q03431) | cAMP luminescence | SGS-72 |  |  | cAMP signaling EC50 | 0.095 nM
GBA1 fragment E326K (Homo sapiens) | SCARB2 lumenal domain 36-430 (Homo sapiens, UniProt Q14108) | SPR |  | pH 7.5, 25 °C, bivalent model, first site | relative to: wild-type GCase with LIMP2, higher = weaker binding | Kd1 fold change | 2 fold
B1 (DIS3 D551N) | CSL4/RRP4/RRP40/RRP41/RRP42/RRP46/RRP43/RRP45/MTR3 Exo9 core (Saccharomyces cerevisiae) | polyA RNA endoribonuclease degradation |  |  | relative to: Rrp44 exo- alone, higher = faster | relative initial rate | 13 fold
COX6B1 (Bos taurus, UniProt P00429) | cytochrome c oxidase eight-subunit core (Bos taurus, UniProt P00396) | anion exchange chromatography, RP-HPLC, SDS-PAGE |  | 120 min, pH 7.2, room temperature, apparent, partly coupled to unfolding |  | urea midpoint for subunit dissociation | 3.5 M
KRRPAKAWSGRRTRLCCHRVPSPNSTNLKGHHVRLCKPCKLEPEPRLWVVPGALPQV (C10orf99 25-81 (Homo sapiens)) | GPR15 (Homo sapiens, UniProt P49685) | inhibition of forskolin-stimulated cAMP, agonist, HTRF | HEK293A-GPR15 |  |  | pEC50 | 7.96
B2 | LILRB4 extracellular domain 22-259 (Homo sapiens, UniProt Q8NHJ6) | SPR |  | multivalent bead assay |  | response | 1750 RU
TP53 R172H (Mus musculus) | Creb1 S133A (Mus musculus, UniProt Q01147-1) | proximity ligation | PDAC |  | relative to: WT CREB1, higher = greater loss of interaction | reduction of PLA signal | 73%
UBQLN1 fragment (Homo sapiens) | PSEN1 loop region (Homo sapiens) | beta-galactosidase, two-hybrid |  |  | relative to: PS2 °C-terminal bait, higher = stronger interaction | interaction strength | 2 fold
NSFL1C (Homo sapiens, UniProt Q9UNZ2) | VCP (Homo sapiens, UniProt P55072) | ATPase activity, inhibitor |  | biphasic |  | concentration of maximum inhibition | 3.1 nM
BDNF mature (Homo sapiens) | NTRK2 extracellular and transmembrane domains (Homo sapiens) | FRET |  | 380 nM | relative to: without ligand, higher = more stable dimer | dimer stability change | -2.65 kcal/mol
cytochrome c5 (Shewanella oneidensis) | CcP/MBP, two covalent hemes (Shewanella oneidensis) | steady-state kinetics |  | oxidized, MBP-fused, added: electron donor 4 µM |  | peroxide turnover rate k1 | 1.6 s⁻¹
FGF2 (Homo sapiens, UniProt P09038) | FGFR3 isoform IIIc (unknown, UniProt Q61851) | cell proliferation, MTT | BaF3-FGFR3c | 20 nM, 48 h, added: completely desulfated heparin 4.9 µg/mL | relative to: FGF 1 with heparin, higher = more proliferation | cell proliferation | 14%
TIMP2 N-terminal domain S4P/V6G/I35V/S68N/V71I/T99N | MMP14 fragment (Homo sapiens) | fluorogenic substrate cleavage, inhibitor, enzyme inhibition assay |  | apparent |  | Ki | 464 nM
B3 (RTT103 1-131 R108N) | RPO21 CTD, two heptad repeats, phosphoserine at both Ser2 | ChIP |  | PMA1 gene, in cells | relative to: wild type, higher = greater reduction | reduction in recruitment | 8 fold
SUV39H1 chromodomain | histone H3 1-13, K9 methylated | reporter luciferase | HepG2 | wild-type H3-K9, in cells |  | firefly luciferase signal | 2.5e+08 p/s/cm^2/sr
RGS1 (Arabidopsis thaliana, UniProt Q8H1F2) | GPA1 (Arabidopsis thaliana, UniProt P18064) | activator, single turnover GTPase assay | nanodiscs | 250 nM |  | GTP hydrolysis rate constant | 0.475 min⁻¹
IGF2 (Homo sapiens, UniProt P01344) | IGF1R (Gallus gallus) | neurite growth | embryonic spinal motoneurons | 0.1-10 nM | relative to: no hormone, higher = longer | neurite length per neuron | 152 um

Molecule | tested on | test | test system | setting | how to read | endpoint | value
SGRGK(Ac)GGKGL (histone H4 residues 1-10; acetylated K5) | ATAD2 bromodomain 981-1108, Cys1057-Cys1079 disulfide (Homo sapiens, UniProt Q6PL18) | ITC | peptide |  |  | ΔH | -8.3 kcal/mol
ribosomes whole ribosome (Rattus norvegicus) | CRIP3 active 22-286 del163-164/del167-189 (Zea mays, UniProt P28522) | SPR |  | 60 nM |  | dissociation end response | 60 RU
B4 (UGT1A9) | COc1ccc(-c2oc3cc(O)cc(O)c3c(=O)c2OC)cc1O | steady-state kinetics |  | pH 7.4, 37 °C |  | Vmax | 0.00749 µmol/min/mg
liraglutide | GLP1R (Homo sapiens, UniProt P43220) | reporter gene, agonist, CRE luciferase reporter | HEK293 |  |  | EC50 | 0.004 nM
clusterin (Homo sapiens, UniProt P10909) | APP Aβ42 (UniProt P05067) | ThT fluorescence |  | 0.3 µM, 37 °C | relative to: Aβ42 or BSA alone, higher = more fibrillation | maximal Aβ42 fibrillation | 49%
IL2 Y45K/E62K (Homo sapiens) | IL2RA (Homo sapiens, UniProt P01589) | flow cytometry | human PBMCs |  | relative to: wildtype IL2, higher = greater reduction | pSTAT5+ Tregs | 3000 fold
B5 (erenumab) | CALCRL/RAMP1 on cells (Homo sapiens) | cAMP production, antagonist | antibody, HEK293S | no preincubation, added: αCGRP 3 nM |  | pIC50 | 7.61
SRSF1 E143A/D146A/D151A (Homo sapiens) | SRPK1 (Homo sapiens, UniProt Q96SB4) | steady-state kinetics |  |  | relative to: wild-type SRSF1, higher = larger decrease | kcat/Km | 10 fold
CACNA1B fragment (Oryctolagus cuniculus) | CACNA1B (Oryctolagus cuniculus, UniProt Q05152) | IBa | Xenopus oocytes | not significant |  | peak current reduction | 8.9 % reduction
TPDYLMQLMNDKKLMSSLPNFSGIFNHLERLLDEEASRVRKDMYNDTLNGSTEK (Qki 14-67 C35S/I49A (Mus musculus, UniProt Q9QYS9)) | itself | CD thermal melting |  | 50 µM |  | melting temperature | 38 °C
B6 (TIMP3 24-144) | ADAMTS5 262-566 (Homo sapiens, UniProt Q9UNA0) | inhibitor, steady-state kinetics |  | 1 h, pH 7.5, 37 °C |  | Ki | 1.01 nM
B7 (Cdk4) | Ink4c (Mus musculus, UniProt Q60772) | pulse-chase | 293T | molecule co-expressed | relative to: partner alone, higher = more stable partner | half-life | > 3 fold
B8 (CXCL9) | CXCR3 (Homo sapiens, UniProt P49682) | inhibition of forskolin-raised cAMP, agonist | HEK293 |  |  | LogEC50 | -7.9
B9 (rof 1-84 Y13A) | rho 1-419 (Escherichia coli, UniProt P0AG30) | rho termination, inhibitor |  |  | lower = more inhibition | terminated transcripts | 90%
Tigit fragment (Mus musculus) | Pvr/IgG1 Fc Fc fusion, extracellular domain (Mus musculus) | SPR |  | avidity, bivalent analyte model |  | koff | 0.00602 s⁻¹
RRRRRRRC / CKNYKKTEV (CRIPT C-terminal PBM; cyclic; disulfide to poly-arginine) | DLG4 309-422 (Homo sapiens, UniProt P78352) | SPR | peptide | pH 7.5, NaCl 100 mM |  | koff | 0.00109 s⁻¹
NRTN fragment E135S/R139S (Homo sapiens) | RET 29-635 (Homo sapiens, UniProt P07949) | MAPK signaling, SRE luciferase reporter, agonist | TGW neuroblastoma |  | higher = stronger signal | maximal luciferase signal | 152000 RLU

Repeated from above:
Molecule | tested on | test | test system | setting | how to read | endpoint | value
RRRRRRRC / CKNYKKTEV (CRIPT C-terminal PBM; cyclic; disulfide to poly-arginine) | DLG4 309-422 (Homo sapiens, UniProt P78352) | SPR | peptide | pH 7.5, NaCl 100 mM |  | koff | 0.00109 s⁻¹
CACNA1B fragment (Oryctolagus cuniculus) | CACNA1B (Oryctolagus cuniculus, UniProt Q05152) | IBa | Xenopus oocytes | not significant |  | peak current reduction | 8.9 % reduction
Tigit fragment (Mus musculus) | Pvr/IgG1 Fc Fc fusion, extracellular domain (Mus musculus) | SPR |  | avidity, bivalent analyte model |  | koff | 0.00602 s⁻¹
B5 (erenumab) | CALCRL/RAMP1 on cells (Homo sapiens) | cAMP production, antagonist | antibody, HEK293S | no preincubation, added: αCGRP 3 nM |  | pIC50 | 7.61
cytochrome c5 (Shewanella oneidensis) | CcP/MBP, two covalent hemes (Shewanella oneidensis) | steady-state kinetics |  | oxidized, MBP-fused, added: electron donor 4 µM |  | peroxide turnover rate k1 | 1.6 s⁻¹
B8 (CXCL9) | CXCR3 (Homo sapiens, UniProt P49682) | inhibition of forskolin-raised cAMP, agonist | HEK293 |  |  | LogEC50 | -7.9
